Experimental data from different studies.
Lines come from different studies, so protocols differ. ± marks the error that the study gave.
CASP7: Caspase-7 (CASP7, Homo sapiens, UniProt P55210)
BIRC2 BIR3: Baculoviral IAP repeat-containing protein 2, BIR3 (BIRC2, Homo sapiens, UniProt Q13490)
Alpha-galactosidase: Alpha-galactosidase (Coffea arabica, UniProt Q42656)
BIRC3 BIR3: Baculoviral IAP repeat-containing protein 3, BIR3 (BIRC3, Homo sapiens, UniProt Q13489)
NOS3: Nitric oxide synthase 3 (NOS3, Bos taurus, UniProt P29473)
CA6: Carbonic anhydrase 6 (CA6, Homo sapiens, UniProt P23280)
Beta-lactamase CTX-M-27: Beta-lactamase CTX-M-27 (Escherichia coli, UniProt Q840M4)
VIM-2: Metallo-beta-lactamase VIM-2 (VIM-2, Escherichia coli, UniProt Q5U7L7)
OPRK1: Kappa-type opioid receptor (OPRK1, Homo sapiens, UniProt P41145)

O=C(O)c1ccc2nc(-c3ccc(OCCCCOc4ccc(-c5nc6ccc(C(=O)O)cc6[nH]5)cc4)cc3)[nH]c2c1 gave a Ki of 1.9 ± 0.3 µM (Dihydrofolate reductase type 2 (Escherichia coli, UniProt P00383); enzyme activity, inhibitor; pH 7).
CC(=O)N[C@@H](CC(C)C)C(=O)N[C@@H](CC(=O)O)C(=O)N[C@H](C(=O)N1CCC[C@H]1C(=O)N[C@H](C=O)CC(=O)O)C(C)C has a Ki of 0.0209 µM (CASP7; enzyme activity, inhibitor, fluorescence; pH 7).
C[C@@H]1O[C@@H](Oc2c(-c3cc(O)c(O)c(O)c3)oc3cc(O)cc(O)c3c2=O)[C@H](O[C@@H]2O[C@H](COC(=O)/C=C/c3ccc(O)c(O)c3)[C@@H](O)[C@H](O)[C@H]2O)[C@H](O)[C@H]1O gave a Ki of 0.4 µM (Pancreatic alpha-amylase (Homo sapiens, UniProt P04746)).
CC1(C)OB(c2ccc(/N=N/c3ccccc3)cc2)OC1(C)C gave a Ki of 4.96 µM (ORAI1 (Homo sapiens, UniProt Q96D31); ion current, inhibitor, patch clamp).
The Ki of CN[C@@H](C)C(=O)N[C@H]1CCCCNC(=O)[C@H](Cc2ccccc2)NC(=O)[C@@H]2CCCN2C(=O)[C@@H](NC(=O)[C@H](C)NC)CCCCNC(=O)[C@H](Cc2ccccc2)NC(=O)[C@@H]2CCCN2C1=O is reported as 0.084 µM (BIRC2 BIR3; cell-free assay, FP).
CCCCCCCCN1[C@H](CCC)[C@H](O)[C@@H](O)[C@H](O)[C@H]1CO has a Ki of 130 µM (Alpha-galactosidase; enzyme activity, inhibitor, absorbance).
For CCC[C@H]1CC[C@H](c2ccc(NC(=S)NC[C@@H]3[C@@H](O)[C@@H](O)[C@H]4[C@H](O)CCCN43)cc2)CC1, the Ki was 0.03 µM (Alpha-mannosidase 2 (Homo sapiens, UniProt Q16706); inhibitor, fluorogenic; with: 4-methylumbelliferyl α-mannoside).
The Ki of CN[C@@H](C)C(=O)N[C@H]1CN(C(=O)Cc2ccccc2)CC[C@H]2CC[C@@H](C(=O)NCc3ccc(F)cc3)N2C1=O is reported as 0.0049 µM (BIRC3 BIR3; ligand displacement, FP).
Cc1cc(N)nc(CC2CNCC2OCCNCC(F)(F)c2ccc(F)cc2)c1 (stereo not shown) has a Ki of 31 µM (NOS3; enzyme activity, inhibitor, hemoglobin capture).
The Ki of CCCCCCCC[C@@H]1[C@H](O)[C@@H](O)[C@H](O)[C@H]2CS/C(=N/CCCC)N12 is reported as > 2000 µM (Alpha-galactosidase; enzyme activity, competitive inhibitor; green coffee bean enzyme, optimal pH, with: p-nitrophenyl glycopyranoside).
The Ki of CC(=O)NCC(=O)N[C@@H](CC(=O)O)C(=O)N[C@@H](Cc1ccc(O)cc1)C(=O)N[C@@H](CO)C(=O)N[C@@H](Cc1cnc[nH]1)C(=O)N[C@H]1CSSC[C@@H](C(=O)N[C@H](C(=O)N[C@@H](Cc2ccc(O)cc2)C(=O)N2CCC[C@H]2C(=O)N[C@@H](CC(=O)O)C(=O)N2CCC[C@H]2C(=O)N[C@@H](CCC(=O)O)C(=O)NCC(=O)NCC(=O)NCC(N)=O)[C@@H](C)O)NC(=O)[C@H](CCCCN)NC(=O)[C@H](Cc2c[nH]c3ccccc23)NC(=O)[C@H](Cc2c[nH]c3ccccc23)NC(=O)[C@@H]2CCCN2C(=O)[C@H](Cc2ccc(O)cc2)NC(=O)[C@H](Cc2ccc(O)cc2)NC(=O)[C@H](CCCNC(=N)N)NC(=O)[C@H](CC(C)C)NC(=O)[C@@H]2CCCN2C(=O)[C@H](CO)NC1=O is reported as 0.2 ± 0.01 µM (ACE2 (Homo sapiens, UniProt Q9BYF1); inhibitor).
With N=C(N)NCCC[C@@H](NC(=O)CCCCCNC(=O)c1ccc(-c2ccnc(N)n2)s1)C(=O)NCCCCCC(=O)N[C@H](CCCNC(=N)N)C(=O)N[C@H](CCCNC(=N)N)C(=O)N[C@H](CCCNC(=N)N)C(=O)N[C@H](CCCNC(=N)N)C(=O)N[C@H](CCCNC(=N)N)C(=O)N[C@H](CCCNC(=N)N)C(=O)N[C@H](CCCCN)C(N)=O the Ki was 0.00227 µM (PRKG1 (Bos taurus, UniProt P00516); enzyme activity, inhibitor, radiometric).
CN(C)CCN(Cc1ccncc1)Cc1c(Cl)cccc1Cl has a Ki of > 20 µM (SLC6A3 (Homo sapiens, UniProt Q01959); ligand displacement in cells, radioligand).
With CN[C@@H](C)C(=O)N[C@H]1CN(C(=O)Cc2ccccc2)CC[C@H]2CC[C@@H](C(=O)NCc3ccccc3Br)N2C1=O the Ki was 0.0229 µM (BIRC2 BIR3; ligand displacement, FP).
COCCOc1cc2ncnc(Nc3cccc(-c4cn(-c5ccc(S(N)(=O)=O)cc5)nn4)c3)c2cc1OCCOC has a Ki of 0.36 µM (CA6; enzyme activity, inhibitor, stopped-flow).
CC[C@H](C)[C@H](NC(C)=O)C(=O)N[C@H](C(=O)N[C@H](C(=O)N[C@@H](CN)C(=O)N[C@H](C=O)CC(=O)O)C(C)C)[C@@H](C)O has a Ki of 24.5 µM (CASP7; enzyme activity, inhibitor, fluorescence; pH 7).
With CN[C@@H](C)C(=O)N[C@H]1CN(C(=O)Cc2ccccc2)CC[C@H]2CC[C@@H](C(=O)NCc3ccccc3)N2C1=O the Ki was 0.0047 µM (BIRC2 BIR3; ligand displacement, FP).
For O=C(Nc1cccc(-c2nn[nH]n2)c1)c1cc(-n2ccnc2)cc(C(F)(F)F)c1, the Ki was 3.63 µM (Beta-lactamase CTX-M-27; enzyme activity, inhibitor, absorbance; pH 7).
For COCCOc1cc2ncnc(Nc3cccc(-c4cn(Cc5ccc(C(=O)Nc6cccc(S(N)(=O)=O)c6)cc5)nn4)c3)c2cc1OCCOC, the Ki was 0.192 µM (CA6; enzyme activity, inhibitor, stopped-flow).
C[C@@H]1O[C@@H](OCc2cc(O)c3c(c2)[C@](O)([C@@H]2O[C@H](CO)[C@@H](O)[C@H](O)[C@H]2O)c2cccc(O)c2C3=O)[C@H](O)[C@H](O)[C@H]1O has a Ki of 135 µM (IDO1 (Homo sapiens, UniProt P14902); uncompetitive inhibitor, Lineweaver-Burk plot).
CN(C)c1ccc2c(c1)C(=O)N([C@H](CS)C(=O)O)C2=O has a Ki of 0.3 ± 0.01 µM (VIM-2; enzyme activity, inhibitor; Km 8 µM, with: chromacef 25 µM).
With CCCCN(CCc1ccccc1)CCc1cccc(O)c1 the Ki was 0.0084 µM (OPRK1; cell-free assay).
The Ki of CN[C@@H](C)C(=O)N[C@H]1CN(C(=O)Cc2ccccc2)CC[C@H]2CC[C@@H](C(=O)NCc3cccc(Br)c3)N2C1=O is reported as 0.0222 µM (BIRC2 BIR3; ligand displacement, FP).
For CCCCCCCC[C@H]1N[C@H](CO)[C@@H](O)[C@H](O)[C@H]1O, the Ki was 87 µM (Alpha-galactosidase; enzyme activity, inhibitor, absorbance).
The Ki of CN[C@@H](C)C(=O)N[C@H]1CN(C(=O)Cc2ccccc2)CC[C@H]2CC[C@@H](C(=O)NCc3ccccc3F)N2C1=O is reported as 0.0095 µM (BIRC2 BIR3; ligand displacement, FP).
For O=C(Nc1cccc(-c2nn[nH]n2)c1)c1cc(-c2ccsc2)cc(C(F)(F)F)c1, the Ki was 5.21 µM (Beta-lactamase CTX-M-27; enzyme activity, inhibitor, absorbance; pH 7).
For Brc1ccccc1-c1nnc(CSc2nnnn2-c2ccccc2)o1, the Ki was 2.05 µM (OPRK1; ligand displacement, radioligand).
COC(=O)[C@@H](CS)N1C(=O)c2ccc(N(C)C)cc2C1=O gave a Ki of 0.044 ± 0.007 µM (VIM-2; enzyme activity, inhibitor; Km 8 µM, with: chromacef 25 µM).
CC(C)C[C@H](NC(=O)N(CCCNC(=N)N)NC(=O)[C@H](Cc1ccc(O)cc1)NC(=O)CCCCCCC(=O)N[C@@H](Cc1ccc(O)cc1)C(=O)NN(CCCNC(=N)N)C(=O)N[C@@H](CC(C)C)C(=O)N[C@@H](CCCNC(=N)N)C(=O)N[C@@H](Cc1ccc(O)cc1)C(N)=O)C(=O)N[C@@H](CCCNC(=N)N)C(=O)N[C@@H](Cc1ccc(O)cc1)C(N)=O gave a Ki of 2.1 µM (NPY5R (Homo sapiens, UniProt Q15761); ligand displacement, radioligand).
Cc1cc(N)nc(C[C@@H]2CNC[C@@H]2OCCCCCc2cccc(N)n2)c1 gave a Ki of 33.5 µM (NOS3; enzyme activity, inhibitor; pH 7.4).
The Ki of CN[C@@H](C)C(=O)N[C@H]1CN(C(=O)Cc2ccccc2)CC[C@H]2CC[C@@H](C(=O)NCc3ccccc3Cl)N2C1=O is reported as 0.0609 µM (BIRC3 BIR3; ligand displacement, FP).
The Ki of COCCOc1cc2ncnc(Nc3cccc(-c4cn(-c5cccc(S(N)(=O)=O)c5)nn4)c3)c2cc1OCCOC is reported as 0.174 µM (CA6; enzyme activity, inhibitor, stopped-flow).
With O=C(Nc1cccc(-c2nn[nH]n2)c1)c1cc(-c2ccoc2)cc(C(F)(F)F)c1 the Ki was 3.02 µM (Beta-lactamase CTX-M-27; enzyme activity, inhibitor, absorbance; pH 7).
With CN[C@@H](C)C(=O)N[C@H]1CN(C(=O)Cc2ccccc2)CC[C@H]2CC[C@@H](C(=O)NCc3ccc(-c4ccccc4)cc3)N2C1=O the Ki was 0.167 µM (BIRC2 BIR3; ligand displacement, FP).
The Ki of O=C(Nc1cccc(-c2nn[nH]n2)c1)c1cc(-c2ccncn2)cc(C(F)(F)F)c1 is reported as 3.72 µM (Beta-lactamase CTX-M-27; enzyme activity, inhibitor, absorbance; pH 7).
The Ki of CN[C@@H](C)C(=O)N[C@H]1CN(C(=O)Cc2ccccc2)CC[C@H]2CC[C@@H](C(=O)NCc3ccccc3C(F)(F)F)N2C1=O is reported as 0.0242 µM (BIRC2 BIR3; ligand displacement, FP).
With O=C(O[C@H](CO)C(F)(F)F)N1C[C@@H]2[C@H](C1)[C@H]2c1ccn(-c2ccc(F)nc2)n1 the Ki was 4.08 µM (SLC6A2 (Homo sapiens, UniProt P23975); ligand displacement, radioligand).

Some of these lines once more:
CN(C)c1ccc2c(c1)C(=O)N([C@H](CS)C(=O)O)C2=O has a Ki of 0.3 ± 0.01 µM (VIM-2; enzyme activity, inhibitor; Km 8 µM, with: chromacef 25 µM).
With CN[C@@H](C)C(=O)N[C@H]1CN(C(=O)Cc2ccccc2)CC[C@H]2CC[C@@H](C(=O)NCc3ccccc3)N2C1=O the Ki was 0.0047 µM (BIRC2 BIR3; ligand displacement, FP).
The Ki of CN[C@@H](C)C(=O)N[C@H]1CN(C(=O)Cc2ccccc2)CC[C@H]2CC[C@@H](C(=O)NCc3cccc(Br)c3)N2C1=O is reported as 0.0222 µM (BIRC2 BIR3; ligand displacement, FP).
